{"data": "Measured values of several laboratories", "note": "Protocols differ between the studies behind these lines. ± marks the error that the study gave. Bridges are numbered along the chain shown (N, C = ends). Where no end group is shown, it is not given here."}
{"Substance": "NC(=O)Cn1cc(COc2ccccc2-c2nc(Cc3ccccc3)no2)nn1", "cell line": "A549", "assay": "qPCR, measured: TP53", "setting": "concentration not given, 24 h", "scale": "relative to: untreated", "quantity": "mRNA level", "result": "5.9 ± 0.04 fold"}
{"Substance": "COc1ccccc1-c1cc2ccc(N(C)C)cc2nc1N", "cell line": "mouse fibroblasts", "assay": "Western blot", "system": "conditioned medium", "setting": "500 nM, 24 h, unit not given", "scale": "relative to: Col1A1", "quantity": "secreted Par-4 level", "result": "86 ± 12.2"}
{"Substance": "COc1ccc(C2=N[C@@H](c3ccc(Cl)cc3)[C@@H](c3ccc(Cl)cc3)N2C(=O)N2CCNC(=O)C2)c(OC(C)C)c1", "cell line": "LNCaP", "assay": "western blot", "setting": "20 µM, 48 h", "scale": "relative to: vehicle", "quantity": "Hdm2 protein level", "result": "increased"}
{"Substance": "Cn1cc(Nc2nccc(-c3ccc4c(c3)CN(C3COC3)CC[C@H]4NC(=O)c3cn(C(C)(C)C)nn3)n2)cn1", "cell line": "human B cells", "assay": "measured: stimulation-induced genes", "setting": "100 nM, 64 h, added: anti-IgM + CD40L + IL-21", "quantity": "inhibition of gene upregulation", "result": "23%"}
{"Substance": "CNC(=O)c1ccc(N2C(=S)N(c3cnc(C#N)c(C(F)(F)F)c3)C(=O)C23CCC3)cc1F", "cell line": "LNCaP", "assay": "PSA expression, antagonist", "setting": "1 day, charcoal-stripped serum 3 days, added: 1 nM DHT", "quantity": "Ki", "result": "38.4 nM"}
{"Substance": "COc1cc2c(cc1OC)C(CCC1(C)CCc3cc(OCc4ccc(F)cc4)ccc3O1)N(C)CC2 (stereo not drawn)", "cell line": "TNBC cells", "assay": "qRT-PCR", "setting": "7.0 µM", "scale": "relative to: DMSO", "quantity": "Bcl-2 mRNA level", "result": "decreased"}
{"Substance": "CCn1cc(-c2cc(Cn3ccnc3)cc3c2CCN([C@@H](C)c2cc(OC)ccn2)C3=O)c(C(F)(F)F)n1", "cell line": "MOLM-13", "assay": "cell growth or viability, ATP luminescence", "setting": "5 days", "quantity": "GI50", "result": "19 nM"}
{"Substance": "NS(=O)(=O)c1ccc(Nc2nc3nccc(-c4c(F)ccc(F)c4F)n3n2)cc1", "cell line": "HD-MB03 and Daoy medulloblastoma", "assay": "cell viability, resazurin", "setting": "10 µM, 72 h, hypoxia", "scale": "relative to: untreated", "quantity": "viability decrease", "result": "20 to 35%"}
{"Substance": "CGLKIQKNEC (disulfide 1-10 (inferred)) (cyclic, disulfide)", "cell line": "proliferating HUVEC", "assay": "cytotoxicity", "setting": "1 mg/mL, 24 h, 37 °C, 2% FBS", "quantity": "cell death", "result": "inactive"}
{"Substance": "COC1C(O)[C@@H](COP(=O)(O)OP(=O)([S-])OP(=O)(O)OP(=O)(O)OC[C@H]2O[C@@H](n3cnc4c(=O)[nH]c(N)nc43)C(O)C2O)O[C@H]1n1c[n+](C)c2c(O)nc(N)nc21 (mixture of isomers)", "cell line": "human immature dendritic cells", "assay": "reporter gene", "setting": "72 h, cap on electroporated luciferase mRNA", "scale": "relative to: beta-S-ARCA D1 capped mRNA", "quantity": "relative total luciferase expression", "result": "0.2 ± 0.02"}
{"Substance": "Cc1cn(-c2cc(NC(=O)c3ccc(C)c(Nc4nccc(-c5cccnc5)n4)c3)cc(C(F)(F)F)c2)cn1", "cell line": "K562 K562-WT", "setting": "48 h", "quantity": "GI50", "result": "~0.71 nM"}
{"Substance": "N.N.O=C([O-])C1(C(=O)[O-])CCC1.[Pt+2]", "cell line": "OV-90", "system": "platinum resistant", "setting": "59.0 µM, 72 h", "quantity": "decrease of cell viability", "result": "~30%"}
{"Substance": "Nc1ccc(-c2cc3ccccc3[nH]2)cc1", "cell line": "RAW264.7", "assay": "sulforhodamine B", "setting": "50 µM, 20 h", "scale": "relative to: vehicle", "quantity": "viability", "result": "58.7 ± 2.9%"}
{"Substance": "CCCCC[C@H](CC(=O)NO)C(=O)N[C@H](C(=O)N1CCC[C@H]1CO)C(C)C", "cell line": "U-937", "assay": "cell proliferation", "setting": "13 µM, day 4, added: MK-571 10 µM", "quantity": "inhibition", "result": "82.1 ± 3.4%"}
{"Substance": "CON=Cc1c(-c2ccccc2)[nH]c2ccccc12", "cell line": "RAW264.7", "assay": "NO release, inhibitor, Griess", "setting": "50 µM, 20 h, LPS-stimulated", "quantity": "inhibition", "result": "97.2%"}
{"Substance": "O=C(CCCc1cc(C(=O)NO)no1)Nc1nc(-c2ccccc2)cs1", "cell line": "BXPC-3", "assay": "cell growth or viability, MTS", "setting": "72 h", "quantity": "GI50", "result": "1500 nM"}
{"Substance": "CN1CCC(CNc2ccc3ncc(-c4cccc(OC(F)(F)F)c4)n3n2)CC1", "cell line": "22Rv1-T", "setting": "2.5 µM, up to 72 h, added: paclitaxel 50 nM", "quantity": "viability decrease", "result": "≤ 40%"}
{"Substance": "N=C(N)NCCC[C@H](NC(=O)[C@@H]1CSSC[C@H](NC(=O)[C@H](Cc2ccc3ccccc3c2)NC(=O)[C@H](CCCNC(=N)N)NC(=O)[C@H](CCCNC(=N)N)NC(=O)CN2CCN(CC(=O)O)CCN(CC(=O)O)CC2)C(=O)N[C@@H](Cc2ccc(O)cc2)C(=O)N[C@@H](CCCNC(N)=O)C(=O)N[C@@H](CCCCN)C(=O)N[C@H](CCCCN)C(=O)N2CCC[C@H]2C(=O)N[C@@H](Cc2ccc(O)cc2)C(=O)N[C@@H](CCCNC(=N)N)C(=O)N[C@@H](CCCNC(N)=O)C(=O)N1)C(N)=O [fluorine-18 labelled]", "cell line": "CHO expressing CXCR4", "setting": "2 h, 37 °C", "scale": "relative to: added radioactivity", "quantity": "cell uptake", "result": "44.5 ± 2.41%"}
{"Substance": "Cn1c(-c2ccccc2)cc2ccccc21", "cell line": "RAW264.7", "assay": "sulforhodamine B", "setting": "50 µM, 20 h", "scale": "relative to: vehicle", "quantity": "viability", "result": "74.3 ± 6.2%"}
{"Substance": "CC(C)(C)OC(=O)Nc1cccc(-c2cc(C(=O)NCCc3cc(C(=O)NO)no3)no2)c1", "cell line": "BXPC-3", "assay": "cell growth or viability, MTS", "setting": "72 h", "quantity": "GI50", "result": "> 50000 nM"}
{"Substance": "Oc1nc(-c2ccc(C(F)(F)F)cc2)nc2c1CSCC2", "cell line": "HEK293T", "assay": "Wnt/β-catenin signalling, TOPFLASH luciferase", "setting": "20 µM, 24 h, added: Wnt-3a 100 ng/mL", "scale": "relative to: Wnt-3a-stimulated control", "quantity": "reporter activity", "result": "30%"}
{"Substance": "c1ccc(Cc2c(-c3ccccc3)n(Cc3ccccc3)c3ccccc23)cc1", "cell line": "RAW264.7", "assay": "sulforhodamine B", "setting": "50 µM, 20 h", "scale": "relative to: vehicle", "quantity": "viability", "result": "101 ± 6.1%"}
{"Substance": "COc1cccc2c1C(=O)c1c(O)c3c(c(O)c1C2=O)C[C@@](O)(C(=O)CO)C[C@@H]3O[C@H]1C[C@H](N)[C@H](O)[C@H](C)O1", "cell line": "Caco-2", "assay": "qPCR, measured: p53", "setting": "IC50, 24 h", "scale": "relative to: untreated", "quantity": "mRNA level", "result": "7.9 ± 0.03 fold"}
{"Substance": "CN(C)c1ccc2cc(-c3c(F)cccc3Cl)c(N)nc2c1", "cell line": "mouse fibroblasts", "assay": "Western blot", "system": "conditioned medium", "setting": "500 nM, 24 h, unit not given", "scale": "relative to: Col1A1", "quantity": "secreted Par-4 level", "result": "127 ± 1.4"}
{"Substance": "Brc1ccc2[nH]c(-c3ccccc3)cc2c1", "cell line": "RAW264.7", "assay": "sulforhodamine B", "setting": "50 µM, 20 h", "scale": "relative to: vehicle", "quantity": "viability", "result": "91.8 ± 8.7%"}
{"Substance": "NC(=O)Cn1cc(COc2ccccc2-c2nc(-c3ccccc3)no2)nn1", "cell line": "A549", "assay": "qPCR, measured: EGFR", "setting": "IC50, 24 h", "scale": "relative to: untreated cancer cells", "quantity": "mRNA level", "result": "0.25 ± 0.007 fold"}
{"Substance": "O=[N+]([O-])C(Br)=Cc1ccc(Br)o1", "cell line": "KB", "setting": "mean of three Leishmania species", "scale": "relative to: KB CC50 over Leishmania IC50", "quantity": "selectivity index", "result": 14.1}
{"Substance": "COc1cccc(-c2ccnc3nc(Nc4ccc(S(N)(=O)=O)cc4)nn23)c1", "cell line": "HD-MB03 and Daoy medulloblastoma", "assay": "cell viability, resazurin", "setting": "10 µM, 72 h, hypoxia", "scale": "relative to: untreated", "quantity": "viability decrease", "result": "50 to 60%"}
{"Substance": "Cc1ccc2cc(-c3ccccc3)[nH]c2c1", "cell line": "RAW264.7", "assay": "sulforhodamine B", "setting": "50 µM, 20 h", "scale": "relative to: vehicle", "quantity": "viability", "result": "76 ± 4.5%"}
{"Substance": "CN(C)c1ccc2cc(-c3ccccc3F)c(=S)[nH]c2c1", "cell line": "mouse fibroblasts", "assay": "Western blot", "system": "conditioned medium", "setting": "500 nM, 24 h, unit not given", "scale": "relative to: Col1A1", "quantity": "secreted Par-4 level", "result": "51.7 ± 4.9"}
{"Substance": "Nc1nc2[nH]c(CCCc3ccc(C(=O)N[C@@H](CCC(=O)O)C(=O)O)s3)cc2c(=O)[nH]1", "cell line": "KB", "setting": "concentration not given, added: thymidine 10 µM", "quantity": "reversal of growth inhibition", "result": "no effect"}
{"Substance": "Clc1ccc2cc(-c3ccccc3)[nH]c2c1", "cell line": "RAW264.7", "assay": "sulforhodamine B", "setting": "50 µM, 20 h", "scale": "relative to: vehicle", "quantity": "viability", "result": "74 ± 11.9%"}
{"Substance": "NNC(=O)Cn1cc(COc2ccccc2-c2nc(-c3ccccc3)no2)nn1", "cell line": "Caco-2", "assay": "qPCR, measured: mTOR", "setting": "IC50, 24 h", "scale": "relative to: untreated cancer cells", "quantity": "mRNA level", "result": "0.32 ± 0.09 fold"}
{"Substance": "fMLF analogue", "cell line": "rabbit polymorphonuclear leukocytes", "setting": "2 x 10 to 8 M, 30 min uptake, 37 °C", "quantity": "release half-life", "result": "3.5 min"}
{"Substance": "c1ccc(C2Cc3ccccc3N2)cc1 (stereo not drawn)", "cell line": "RAW264.7", "assay": "sulforhodamine B", "setting": "50 µM, 20 h", "scale": "relative to: vehicle", "quantity": "viability", "result": "103 ± 7.4%"}
{"Substance": "O=C(Cn1cc(COc2ccccc2-c2nc(Cc3ccccc3)no2)nn1)NNC(=S)Nc1ccccc1", "cell line": "Caco-2", "assay": "qPCR, measured: TP53", "setting": "concentration not given, 24 h", "scale": "relative to: untreated", "quantity": "mRNA level", "result": "4.36 ± 0.05 fold"}
{"note": "Excerpt of the above:"}
{"Substance": "COc1ccccc1-c1cc2ccc(N(C)C)cc2nc1N", "cell line": "mouse fibroblasts", "assay": "Western blot", "system": "conditioned medium", "setting": "500 nM, 24 h, unit not given", "scale": "relative to: Col1A1", "quantity": "secreted Par-4 level", "result": "86 ± 12.2"}
{"Substance": "COc1ccc(C2=N[C@@H](c3ccc(Cl)cc3)[C@@H](c3ccc(Cl)cc3)N2C(=O)N2CCNC(=O)C2)c(OC(C)C)c1", "cell line": "LNCaP", "assay": "western blot", "setting": "20 µM, 48 h", "scale": "relative to: vehicle", "quantity": "Hdm2 protein level", "result": "increased"}
{"Substance": "Cn1cc(Nc2nccc(-c3ccc4c(c3)CN(C3COC3)CC[C@H]4NC(=O)c3cn(C(C)(C)C)nn3)n2)cn1", "cell line": "human B cells", "assay": "measured: stimulation-induced genes", "setting": "100 nM, 64 h, added: anti-IgM + CD40L + IL-21", "quantity": "inhibition of gene upregulation", "result": "23%"}
{"Substance": "CNC(=O)c1ccc(N2C(=S)N(c3cnc(C#N)c(C(F)(F)F)c3)C(=O)C23CCC3)cc1F", "cell line": "LNCaP", "assay": "PSA expression, antagonist", "setting": "1 day, charcoal-stripped serum 3 days, added: 1 nM DHT", "quantity": "Ki", "result": "38.4 nM"}
